Results gathered from unrelated publications.
Each line is one published result; not all experiments were run side by side.

`CC(C)(Sc1ccncc1-c1ccc(C#N)c2ccccc12)C(=O)O` — result for “amount excreted in urine (0-24 h)”: 83.3 µg (human, urine; oral, 5 mg, added: febuxostat 40 mg).
`CC(=O)N(C)[C@H]1CCN(C(=O)c2cnc3c(c2)C[C@](C)(c2ccc(F)cc2)N3)C1`: “amount excreted in urine” 19300 nmol (healthy male human, urine; oral, 15 mg once daily, 0-48 h steady state, geometric mean).
`Oc1ccc([C@@H](O)c2cc(-c3ncnc4cc(N5CCOCC5)ccc34)c(F)cc2Cl)nn1` — result for “amount excreted in urine”: 4.95% (healthy human volunteers, urine; 0-24 h, overall, geometric mean; baseline: dose).
Under “amount excreted unchanged in urine”, `Cn1cc(-c2cn3nccc3c(-c3cnn([C@]4(CC#N)C[C@@H](C#N)C4)c3)n2)cn1` is recorded as 2.9 mg (healthy humans, urine; oral, 400 mg once daily, day 10, Japanese cohort, dosing interval).
`CN(C(=O)C(C)(C)c1cc(C(F)(F)F)cc(C(F)(F)F)c1)c1cnc(N2C[C@H]3COCCN3C[C@H]2CO)cc1-c1ccc(F)cc1[14CH3]` — result for “amount excreted in faeces”: 50.5% (healthy male human; oral, 120 mg, up to 480 h cumulative; baseline: dose).
`C=CC(=O)Nc1cc(Nc2ncc(C(=O)OC(C)C)c(-c3cn(C)c4ccccc34)n2)c(OC)cc1N(C)CCN(C)C`: “amount excreted in urine” 0.59 mg (healthy human, urine; oral, 80 mg single dose, 0-48 h, arithmetic mean).
`Cl.O=C(NC1CCOCC1)c1csc([C@@H]2C[C@H]2NCC2CC2)c1` — result for “amount excreted in urine”: 5.89 mg (human, fed, urine; oral, 30 mg single dose).
`NCCONC(=O)[C@@H]1CC[C@@H]2CN1C(=O)N2OS(=O)(=O)O` — result for “amount excreted in urine (0-24 h)”: 1.74e+06 µg (human male, urine; intravenous infusion, 2 g multiple doses, day 9).
`CC(C)n1c(C2CCNCC2)nc2c([N+](=O)[O-])c(Br)c(Br)cc21`: “amount excreted in urine” 1.11 mg (human, urine; oral, 125 mg, 0-24 h, median, single dose).
`CN[C@@H]1COc2c(S(=O)(=O)NC(=O)Nc3c4c(cc5c3CCC5)CCC4)cnn2C1`: “amount excreted in urine (0-48 h)” 163 mg (human, urine; oral, 900 mg, 0-48 h).

For quick reference, copied from above:
`CN(C(=O)C(C)(C)c1cc(C(F)(F)F)cc(C(F)(F)F)c1)c1cnc(N2C[C@H]3COCCN3C[C@H]2CO)cc1-c1ccc(F)cc1[14CH3]` — result for “amount excreted in faeces”: 50.5% (healthy male human; oral, 120 mg, up to 480 h cumulative; baseline: dose).
